# Measured values pooled from the literature.
# Compare with care: the assays were run in different laboratories. Numbers after ± are the reported error.
SMILES,organism,assay,system,setting,IC50
CCOC(=O)CNC(=O)CN1C(=O)S/C(=C\c2ccc(C)cc2)C1=O,Trypanosoma equiperdum,cell viability,IVM-t1,72 h,> 63 µM
Cc1cc(N2CCC(C#N)(C3(C)CC3)C2=O)cc(C(=O)NCc2cc(F)cc(-c3cnn(C)c3)c2)n1 (racemic),Plasmodium falciparum,"parasite growth, [3H]hypoxanthine incorporation",Cam3.I,72 h,0.015 µM
N#C/C=C/C(=O)Oc1ccc(Br)cc1,Leishmania amazonensis,"parasite growth, resazurin",mouse Macrophage,"24 h, intracellular, amastigote",18.1 µM
CN(C)CCn1c2ccc([N+](=O)[O-])cc2c(=O)n1Cc1ccccc1,Leishmania amazonensis,"parasite growth, resazurin",,"72 h, promastigote",34.4 µM
O=[N+]([O-])c1ccc(/C=N/N=C/c2ccc(Cl)cc2)o1,Trypanosoma equiperdum,"parasite growth, CellTiter-Glo",IVM-t1 bloodstream form,72 h,1.18 ± 0.17 µM
NC(=O)CCCn1c2ccc([N+](=O)[O-])cc2c(=O)n1Cc1ccccc1,Leishmania amazonensis,"parasite growth, resazurin",,"72 h, promastigote",0.8 µM
COC1C=COC2(C)Oc3c(C)c(O)c4c(c3C2=O)C2=NC3(CCN(CC(C)C)CC3)NC2=C(NC(=O)C(C)=CC=CC(C)C(O)C(C)C(O)C(C)C(OC(=O)c2cccnc2)C1C)C4=O (centres unmarked),Mycobacteroides abscessus,,ATCC 19977,CAMHB,0.031 µM
CC(C)=CCC/C(C)=C/CNCCNC1C2CC3CC1CC(O)(C3)C2 (centres unmarked),Mycolicibacterium smegmatis,microbial growth,,,216 µM
O=[N+]([O-])c1ccc(/C=N/N=C/c2ccc(F)cc2)o1,Trypanosoma equiperdum,"parasite growth, CellTiter-Glo",IVM-t1 bloodstream form,72 h,2.46 ± 0.7 µM
O=[N+]([O-])/C=C/c1ccco1,"Leishmania amazonensis, L. infantum, L. braziliensis",,promastigotes,mean of three species,2.87 µM
CCOC(=O)C(CC)NC(=O)CN1C(=O)S/C(=C\c2ccc(C)cc2)C1=O (centres unmarked),Trypanosoma equiperdum,cell viability,IVM-t1,72 h,> 59 µM
O=[N+]([O-])c1ccc(/C=N/N=C/c2ccc(OCc3ccccc3)cc2)o1,Trypanosoma equiperdum,"parasite growth, CellTiter-Glo",IVM-t1 bloodstream form,72 h,0.52 ± 0.09 µM
O=c1c2cc([N+](=O)[O-])ccc2n(CCBr)n1Cc1ccccc1,Leishmania amazonensis,"parasite growth, resazurin",,"72 h, promastigote",1.2 µM
O=[N+]([O-])/C=C/c1ccc(Br)o1,Leishmania amazonensis,parasite growth,,"72 h, promastigote",2.1 µM
CCOC(=O)CNC(=O)CN1C(=O)S/C(=C\c2ccc(OC)c(O)c2)C1=O,Trypanosoma equiperdum,cell viability,IVM-t1,72 h,> 64 µM
NCCn1c2ccc([N+](=O)[O-])cc2c(=O)n1Cc1ccccc1,Leishmania amazonensis,"parasite growth, resazurin",,"72 h, promastigote",0.9 µM
O=[N+]([O-])c1ccc(/C=N/N=C/c2ccc(F)cc2)s1,Trypanosoma equiperdum,"parasite growth, CellTiter-Glo",IVM-t1 bloodstream form,72 h,0.57 ± 0.11 µM
C=CCn1c2ccc([N+](=O)[O-])cc2c(=O)n1Cc1ccccc1,Leishmania amazonensis,"parasite growth, resazurin",,"72 h, promastigote",2.5 µM
COC1C=COC2(C)Oc3c(C)c(O)c4c(c3C2=O)C2=NC3(CCN(CC(C)C)CC3)NC2=C(NC(=O)C(C)=CC=CC(C)C(O)C(C)C(O)C(C)C(OC(=O)Nc2cscn2)C1C)C4=O (centres unmarked),Mycobacteroides abscessus,intracellular bacterial growth,"THP-1 derived macrophages, ATCC 19977",,0.01 µM
COC(=O)C1=CO[C@@H](C)[C@@H]2Cn3ccc4c5ccccc5nc-4c3C[C@H]12,Plasmodium falciparum,"parasite growth, [3H]-hypoxanthine incorporation",3D7,72 h,0.18 ± 0.08 µM
C/C(=C\c1ccco1)[N+](=O)[O-],"Leishmania amazonensis, L. infantum, L. braziliensis",,promastigotes,mean of three species,2.17 µM
Cc1ccc(/C=N/N=C/c2ccc([N+](=O)[O-])s2)cc1,Trypanosoma equiperdum,"parasite growth, CellTiter-Glo",IVM-t1 bloodstream form,72 h,3.39 ± 0.44 µM
CCCCn1c2ccc([N+](=O)[O-])cc2c(=O)n1Cc1ccccc1,Leishmania amazonensis,"parasite growth, resazurin",,"72 h, promastigote",0.6 µM
CCOC(=O)C(C)NC(=O)CN1C(=O)N/C(=C\c2ccc(C)cc2)C1=O (centres unmarked),Trypanosoma equiperdum,cell viability,IVM-t1,72 h,> 57 µM
COCCn1c2ccc([N+](=O)[O-])cc2c(=O)n1Cc1ccccc1,Leishmania amazonensis,"parasite growth, resazurin",,"72 h, promastigote",1.7 µM
O=[N+]([O-])c1ccc(/C=N/N=C/c2ccc(Cl)cc2)s1,Trypanosoma equiperdum,"parasite growth, CellTiter-Glo",IVM-t1 bloodstream form,72 h,1.23 ± 0.16 µM
"CC1=CCC2(O)C1C1OC(=O)C(CN(C)C)C1CCC2(C)O (single isomer, unassigned)",Artemia salina,survival,larvae,24 h,104 µg/mL
COc1ccc(/C=N/N=C/c2ccc([N+](=O)[O-])s2)cc1,Trypanosoma equiperdum,"parasite growth, CellTiter-Glo",IVM-t1 bloodstream form,72 h,2.1 ± 0.41 µM
CCOC(=O)C(CC)NC(=O)CN1C(=O)S/C(=C\c2ccc(OC)cc2)C1=O (centres unmarked),Trypanosoma equiperdum,cell viability,IVM-t1,72 h,> 58 µM
O=[N+]([O-])c1ccc(/C=N/N=C/c2ccc(Br)cc2)o1,Trypanosoma equiperdum,"parasite growth, CellTiter-Glo",IVM-t1 bloodstream form,72 h,0.71 ± 0.18 µM
COC(=O)CCn1c2ccc([N+](=O)[O-])cc2c(=O)n1Cc1ccccc1,Leishmania amazonensis,"parasite growth, imaging",mouse Peritoneal macrophage,"48 h, intracellular, amastigote",0.9 µM
O=C1Nc2ccc(Cl)cc2C1=Cc1ccc(-c2cccc(C(=O)NCC3CCNCC3)c2)o1 (mixture of isomers),Ancylostoma ceylanicum,motility,adult worms,24 h,6 µM
